{"data": "Results collected from several papers", "note": "Every numbered part comes from another study and shows a few of its results, in no order."}
{"data": "Sample 1", "target": "Histone acetyltransferase KAT6A, winged helix 1, GST fusion (KAT6A, Homo sapiens, UniProt Q92794, residues 1-85)", "technique": "protein binding microarray", "form": "double-stranded DNA, one strand shown", "medium": "in vitro", "tested at": "not given", "setting": "8-mer, flanks averaged, mean of 2 arrays, mostly near background", "relative to": "not given", "reading": "higher = stronger binding", "Residues (chain)": "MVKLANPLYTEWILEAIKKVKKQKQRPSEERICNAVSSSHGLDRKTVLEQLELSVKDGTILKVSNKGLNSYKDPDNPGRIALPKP"}
{"Oligonucleotide": "CGCTGCGC", "E-score": 0.387}
{"Oligonucleotide": "GCTAATCA", "E-score": 0.0582}
{"Oligonucleotide": "CGACCGTA", "E-score": 0.202}
{"Oligonucleotide": "GTCATAAC", "E-score": -0.102}
{"Oligonucleotide": "GTTGGAGA", "E-score": -0.118}
{"Oligonucleotide": "TAAGTGGA", "E-score": -0.245}
{"Oligonucleotide": "CGTGCCGC", "E-score": 0.403}
{"Oligonucleotide": "ATAGAGGC", "E-score": -0.0906}
{"Oligonucleotide": "TGACGTAA", "E-score": -0.0597}
{"Oligonucleotide": "ACCGAGTC", "E-score": -0.0171}
{"Oligonucleotide": "ACAGATAA", "E-score": -0.106}
{"Oligonucleotide": "AGTTAAAC", "E-score": -0.163}
{"Oligonucleotide": "GTCTCAGA", "E-score": -0.133}
{"Oligonucleotide": "GCGAGCGA", "E-score": 0.0888}
{"Oligonucleotide": "GATCTAAC", "E-score": -0.117}
{"Oligonucleotide": "GAAATAAA", "E-score": -0.0954}
{"Oligonucleotide": "ATGCCGGC", "E-score": 0.414}
{"Oligonucleotide": "AGGGAGTA", "E-score": -0.0822}
{"Oligonucleotide": "AGTATTTG", "E-score": -0.229}
{"Oligonucleotide": "AGTCTCCA", "E-score": -0.276}
{"Oligonucleotide": "CACTAAAC", "E-score": 0.0231}
{"Oligonucleotide": "ACACAGAA", "E-score": -0.203}
{"Oligonucleotide": "AGATATAA", "E-score": -0.0533}
{"data": "Sample 2", "target": "RNA binding protein fox-1 homolog 2, RRM domain, GST-SBP tag (RBFOX2, Homo sapiens, UniProt O43251-10, residues 100-194)", "technique": "RNA Bind-n-Seq", "form": "RNA", "medium": "in vitro", "tested at": "365 nM", "setting": "natural RNA segment, single round, ends assumed", "relative to": "no-protein control", "reading": "higher = stronger binding", "all sequences stand within": "GGGAGUUCUACAGUCCGACGAUC … UGGAAUUCUCGGGUGCCAA", "Target sequence (chain)": "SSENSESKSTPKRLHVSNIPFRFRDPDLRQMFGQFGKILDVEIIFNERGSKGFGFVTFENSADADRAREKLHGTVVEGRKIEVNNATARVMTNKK"}
{"Oligonucleotide": "CGAAGAGGAAAGCCACGUAGAGUGGUUGGCAUGGGGUGCCAGCAUCGUGCAAGCUCUGUCAUAAUCUGCAUCUUCCCAGCAGCCUGGUACCCCAGGUUCCUGUAACUCCC", "RBNS enrichment (R)": 0.582}
{"Oligonucleotide": "UAUUCUGCACACAUAUCGGAAGCAGCAAGCGCUUUACACACUUGAGUAGUGGGAUAAGUCACUGUUUUCUUUACAAAACAAAACAGUCCUGUUGGGAAUGAUUGCUGUUG", "RBNS enrichment (R)": 0.49}
{"Oligonucleotide": "GAAGUAGAAAAGAGUGCUGGACAUAGGAAGGGGGUGCUUGGUUUGAGGGGUUAAUGUGAGGCCUUUUUGAAAAAUGAAUAUUUUGAUAAAAAGAAUUCUUGUUUUAGCAC", "RBNS enrichment (R)": 1.06}
{"Oligonucleotide": "AACGGUCACCCUGUAAAGUGCUCAGAGUCGGAGUCCAGCACCUCCCCCAGUGGUGGCAGCUGUUCCAUGCCUGCUCUGUUUCAGCUCUUCUGAGACAGGGAGGAGGAGCC", "RBNS enrichment (R)": 0.263}
{"Oligonucleotide": "GAACCACAGACCACCAAUGUUGAAGUCAGAAUGGAAAGUGUGCCAGCAAGGAUUUCUGAACACUAAAUCCAACGAGCCUUCACAGGGAAAGGAUAUUUGAGCAGAAUUCU", "RBNS enrichment (R)": 0.425}
{"Oligonucleotide": "UCUUUUAAAAGUACACAGAAUUUCCAUUCCUUAUAAAGGUGGCAAAAUUGGUUUGUCAUUUACCUCCAUGUGACUCCUUGCCCCAUAUAAAUGUCAGCAUAUGUAGCAAG", "RBNS enrichment (R)": 0.544}
{"Oligonucleotide": "CUGAUAUGCCACAUAGGAUGCUCCAAAGCCCCAAGACAUUGGAGUUUGGCUCAAGAGCCUUUAUUUGGCCUGUUUGCCUUAAUUCUAUUACAUAGCAUACCUGUAUUUCA", "RBNS enrichment (R)": 0.851}
{"Oligonucleotide": "GCGCCACUCACCCUCAGUGUCCUUCCGUGAGGCUUCUCGCCAAAGAUGAUAGAGGGUGAAUGAUCUCAGUGCAUAUGUCAUACUGCCUUGUGGGUGGACUCUAAGUUGGC", "RBNS enrichment (R)": 0.284}
{"data": "Sample 3", "target": "Interferon regulatory factor 5, full length, phosphomimetic (IRF5, Homo sapiens, UniProt Q13568-2, residues 1-514, K96S/S451D/S453D/S456D/S462D)", "technique": "protein-binding microarray", "form": "double-stranded DNA, one strand shown", "medium": "in vitro", "tested at": "250 nM", "setting": "60-bp whole probe", "together with": "salmon DNA 0.4 mg/ml", "relative to": "random background probes", "reading": "higher = stronger binding", "all sequences stand within": "GCCTAGCAC … GTCTTGATTCGCTTGACGCTGCTG"}
{"Oligonucleotide": "CAGGGTCTCGCTTCATCTCCGTGCTAG", "log fluorescence": "-0.362 z-score"}
{"Oligonucleotide": "TTAGGTCTCGGTATTGGTTAGTGCTAG", "log fluorescence": "0.878 z-score"}
{"Oligonucleotide": "GGAAATTCTCATTTCCAATTGTGCTAG", "log fluorescence": "0.68 z-score"}
{"Oligonucleotide": "TTAGGACGGCTTCTCCTTTAGTGCTAG", "log fluorescence": "-0.299 z-score"}
{"Oligonucleotide": "GACGATATCGGGACTGGAGAGGTGCTA", "log fluorescence": "0.831 z-score"}
{"Oligonucleotide": "TTCCTTTACTTTCTTTTTTTGTGCTAG", "log fluorescence": "3.61 z-score"}
{"Oligonucleotide": "TTCGTTTTGTGTCTGGGCATGTGCTAG", "log fluorescence": "0.625 z-score"}
{"Oligonucleotide": "AGCCAGGCAACCTATGGCCTGTGCTAG", "log fluorescence": "-0.83 z-score"}
{"Oligonucleotide": "GCAAACCCCATTCTCAGCCCGTGCTAG", "log fluorescence": "-0.446 z-score"}
{"Oligonucleotide": "TTAGATTTCGGGTTTCAATTAGTGCTA", "log fluorescence": "5.89 z-score"}
{"Oligonucleotide": "TCAATTTTGTCCTCCCCTACTGTGCTA", "log fluorescence": "0.424 z-score"}
{"Oligonucleotide": "TCAAGTGTGTGTCTGATACTGTGCTAG", "log fluorescence": "-0.185 z-score"}
{"Oligonucleotide": "TTAGGACTGGACACTGGGATAGTGCTA", "log fluorescence": "-0.593 z-score"}
{"Oligonucleotide": "TTAGATATCGGGCCTGGATTAGTGCTA", "log fluorescence": "0.759 z-score"}
{"Oligonucleotide": "GACGTTATCGGTCTCGGGACGTGCTAG", "log fluorescence": "4.96 z-score"}
{"Oligonucleotide": "TCAGTTTTCAGTTTCACACTGTGCTAG", "log fluorescence": "5.1 z-score"}
{"Oligonucleotide": "TTAGGTTTCGACTATCGGTAAGTGCTA", "log fluorescence": "9.19 z-score"}
{"Oligonucleotide": "GACGGTATCGGGTATCTGGACGTGCTA", "log fluorescence": "2.64 z-score"}
{"Oligonucleotide": "AAGTGTTTCTCAACCAGTTTGTGCTAG", "log fluorescence": "0.456 z-score"}
{"data": "Sample 4", "target": "RING finger protein unkempt homolog, zinc fingers 1-6, SBP tag (UNK, Homo sapiens, UniProt Q9C0B0, residues 30-357)", "technique": "RNA Bind-n-Seq", "form": "RNA", "medium": "in vitro", "tested at": "100 nM", "setting": "RNA with constant flanks, ends assumed", "relative to": "input RNA pool", "reading": "higher = stronger binding", "UniProt Q9C0B0, sequence (30-357, looked up)": "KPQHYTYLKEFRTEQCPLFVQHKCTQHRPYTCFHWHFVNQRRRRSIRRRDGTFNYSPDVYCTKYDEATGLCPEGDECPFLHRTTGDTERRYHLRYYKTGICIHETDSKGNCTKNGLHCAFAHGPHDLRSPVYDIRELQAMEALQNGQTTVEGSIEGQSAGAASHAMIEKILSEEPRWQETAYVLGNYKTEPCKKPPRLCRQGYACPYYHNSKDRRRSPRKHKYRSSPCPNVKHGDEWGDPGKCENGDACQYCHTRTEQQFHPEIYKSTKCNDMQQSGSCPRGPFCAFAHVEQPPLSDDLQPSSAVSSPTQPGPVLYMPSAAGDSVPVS"}
{"Oligonucleotide": "GGGAGUUCUACAGUCCGACGAUCAGGAAAUGCUGGCUGCAAACCCUCAGGAUCGUCCAGAUGCUUUUGAACCCGAACUCAGAUCCGUACAAAUUGCAUUUAAAGACCGCAGCUGGGAAACGUGACACAUAUUAUUUGCAAAUACAACAGAGGAUUGAGCAUCA", "bound/input enrichment [ratio]": 0.366}
{"Oligonucleotide": "GGGAGUUCUACAGUCCGACGAUCAGGGAUGGCCCCCAAUCCCACCUCUGUUUAUUCUGUAAACUGCAACCUAUAAAUAACCUUCCGCAUUCCUAUUGUAACAAAAUUAAUUUUUAUGAAAUAAAUUAUAUUUCCCCGUCUAAUCAACAGAGGAUUGAGCAUCA", "bound/input enrichment [ratio]": 0.516}
{"Oligonucleotide": "GGGAGUUCUACAGUCCGACGAUCCAGUUCCGAUAUUCUUUUUAUUUUUUUUCUUUUCCCUCAAUCCUUUUUUAUUUUUAAAAACCGUUCUUUUGUAAUGUGGUGUUCAAAACGGAAUUGAAAACUGGCACCCCAUCUCUUUGACAACAGAGGAUUGAGCAUCA", "bound/input enrichment [ratio]": 1.58}
{"Oligonucleotide": "GGGAGUUCUACAGUCCGACGAUCUCCCAGCACUUUGAUAAAAAGUGUGGACUGGUUGCUUGUAUUUUCCUUAUUCUUUUUAAUCCGUUUUAUUAUGUAUGCUACCAUUCGAACUGAGAGUAUUCGGUGGCUAAUUCCAGGACACAACAGAGGAUUGAGCAUCA", "bound/input enrichment [ratio]": 0.979}
{"note": "Repeated from above (sample 3):"}
{"Oligonucleotide": "TCAATTTTGTCCTCCCCTACTGTGCTA", "log fluorescence": "0.424 z-score"}
{"Oligonucleotide": "TCAAGTGTGTGTCTGATACTGTGCTAG", "log fluorescence": "-0.185 z-score"}
{"Oligonucleotide": "TTAGGACTGGACACTGGGATAGTGCTA", "log fluorescence": "-0.593 z-score"}
{"Oligonucleotide": "TTAGATATCGGGCCTGGATTAGTGCTA", "log fluorescence": "0.759 z-score"}
{"Oligonucleotide": "GACGTTATCGGTCTCGGGACGTGCTAG", "log fluorescence": "4.96 z-score"}
{"Oligonucleotide": "TCAGTTTTCAGTTTCACACTGTGCTAG", "log fluorescence": "5.1 z-score"}
